Results pooled from the literature.
Numbered parts are unrelated; each lists some results of a single study. Substitutions count along the parent as printed.

Study 1 — target: CCNF, cyclin fold, Cln2 fusion (human); method: yeast growth competition, sequencing; medium: yeast; notes: strong parent motif; baseline: not given; direction: higher = stronger binding
Starting sequence: CDC6 docking peptide (human); TLKGRRLVFDNQL
| Change | normalised enrichment score |
| --- | --- |
| L2V | 8.43 |
| R6Q | 6.76 |
| L2H | 6.03 |
| K3H | 7.8 |
| L13A | 9.27 |
| Q12K | 8.38 |
| R5K | 6.56 |
| L7V | 1.1 |
| N11Y | 9.94 |
| Q12V | 9.19 |
| R5I | 2.19 |
| R6P | 1.21 |
| R5V | 2.42 |
| N11V | 9.09 |
| Q12P | 9 |
| F9V | 0.662 |

Study 2 — method: RNA Bind-n-Seq; molecule type: RNA; medium: in vitro; tested at: 1 µM; notes: whole 134-nt RNA, ends assumed; added: 150 mM KCl; baseline: input library; direction: higher = stronger binding
Target: Ras GTPase-activating protein-binding protein 1, RRM domain (G3BP1, Homo sapiens, UniProt Q13283)
Sequence of UniProt Q13283 (whole entry, looked up): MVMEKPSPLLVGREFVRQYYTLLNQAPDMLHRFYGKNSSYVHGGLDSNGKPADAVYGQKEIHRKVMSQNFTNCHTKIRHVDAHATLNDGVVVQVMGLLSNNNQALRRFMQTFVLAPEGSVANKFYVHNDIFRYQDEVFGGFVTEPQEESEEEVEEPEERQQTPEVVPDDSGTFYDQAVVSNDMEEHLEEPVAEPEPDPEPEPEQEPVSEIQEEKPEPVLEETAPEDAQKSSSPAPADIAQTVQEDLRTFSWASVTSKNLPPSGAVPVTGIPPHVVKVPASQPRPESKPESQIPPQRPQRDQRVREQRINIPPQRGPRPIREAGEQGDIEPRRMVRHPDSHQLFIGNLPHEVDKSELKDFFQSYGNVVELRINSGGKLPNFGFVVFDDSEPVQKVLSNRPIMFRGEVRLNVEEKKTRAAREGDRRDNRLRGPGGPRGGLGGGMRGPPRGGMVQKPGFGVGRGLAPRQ
All sequences stand within: GGGAGUUCUACAGUCCGACGAUC … UGGAAUUCUCGGGUGUCAAGG
| Oligonucleotide | log2 enrichment |
| --- | --- |
| UCAAGUCCUGUGCUACACAUCGUAUGUACCGAAUCGGGGUGGGGAGGGGAGGGGAAAGUAUUAUGUUACGCCGUUCGGAUCUGCACUUCC | 1.1 |
| CCUGUGCUACACAUCGUAUGUACCGAAUCGGGAAAAAAAGGGAAAAAAAGGGAAAAAGGGAAAGUAUUAUGUUACGCCGUUCGGAUCUGC | -0.0925 |
| AUCAUGCAGGUGGGCAUCUUUGGGAAGUGGGGCAAGGGGGGGAUAGGGAGGGGGGUAACACUUUGGGAACAGGUGGUCCCAGGUCGUUUC | -0.563 |
| CCUCAAGUCCUGUGCUACACAUCGUAUGUACCGAAUCGGAAAGGUGGUUUGGAAAGUAUUAUGUUACGCCGUUCGGAUCUGCACUUCCAG | -0.31 |
| GCAUAAUGGAUAUUUUUUAACUUGGCGAGAUGUGUCUCUCAAUCCUGUGGCUUUGGUGAGAGAGUGUGCAGAGAGCAAUGAUAGCAAAUA | -0.232 |
| CACAGACAACACGCACCCACACAGACACAGAGGGAAGGGGUUGGGAUGGGGACACGGUGCACAGCAGGGCGGGGUAGGACCCCAGCCCCU | -0.0987 |
| CAAGUCCUGUGCUACACAUCGUAUGUACCGAAUCGGGGUUUGGGUUUGGGGUUUGGAAAGUAUUAUGUUACGCCGUUCGGAUCUGCACUU | -0.558 |
| CUCAAGUCCUGUGCUACACAUCGUAUGUACCGAAUCGGUUUUUUUGGAGGUGGAAAGUAUUAUGUUACGCCGUUCGGAUCUGCACUUCCA | -0.148 |
| UGGCCCUGGUGGCAUGCGGGGAGGAAGAGGUGGCCUCAUGGAUCGUGGUGGUCCCAGUGGAAUGUUCAGAGGUGGCCGUGGUGGAGACAG | 0.569 |
| UGGCCCUGGUGGCAUGCGGGGAGGAAGAGGUGGCCUCAUGGAUCGUGGUGGUCCCGGUGGAAUGUUCAGAGGAGGCCGUGGUGGAGACAG | 1.65 |
| CCUCAAGUCCUGUGCUACACAUCGUAUGUACCGAAUCGGCGGGGCGGGCGGGGAAAGUAUUAUGUUACGCCGUUCGGAUCUGCACUUCCA | 0.127 |
| CAAGUCCUGUGCUACACAUCGUAUGUACCGAAUCGGGGUGGGGUUUGGGGAGGGGAAAGUAUUAUGUUACGCCGUUCGGAUCUGCACUUC | 1.4 |
| UGUUGAUGCUGUAAUUGCUGAACUUAAAAAGCAGUCUAAACCUGUGACCACCCCUGAAGAAAUUGCACAGGUAAGGACUUAACAUGUUAC | 0.221 |
| AAGUCCUGUGCUACACAUCGUAUGUACCGAAUCGGGUUUUGGUUUUGGGUUUUGGGGAAAGUAUUAUGUUACGCCGUUCGGAUCUGCACU | -0.105 |

Study 3 — method: DHFR PCA, deep sequencing; medium: yeast; added: (+)-ABA 0.032 µM; baseline: wild-type fitted maximum; direction: higher = stronger binding
Target: ABI1, truncated, D143A, DHFR fusion (Arabidopsis thaliana)
Notes: methotrexate growth selection, single substitutions
Starting sequence: PYL1, truncated, DHFR fusion (Arabidopsis thaliana); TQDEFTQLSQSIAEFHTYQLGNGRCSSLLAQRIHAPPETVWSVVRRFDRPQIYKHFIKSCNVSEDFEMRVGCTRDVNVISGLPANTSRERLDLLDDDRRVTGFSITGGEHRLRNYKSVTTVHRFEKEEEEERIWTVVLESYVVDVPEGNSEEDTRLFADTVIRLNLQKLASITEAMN
| Change | relative binding score |
| --- | --- |
| T106Q | 14.4% |
| V78G | -0.283% |
| L91P | -6.06% |
| V70Q | 2.54% |
| S80E | -2.42% |
| A13L | 13.1% |
| S87R | 60.1% |
| V70L | 2.69% |
| F157E | 4.25% |
| K54V | -2.11% |
| E125Y | 34.4% |
| R132L | 22% |
| I52M | 34.2% |
| I52W | 11.6% |
| N77A | 39.1% |
| L169R | 1.4% |
| T6S | 29.4% |
| Y115F | 26.5% |
| L82V | 10.6% |
| E89K | -2.69% |

Study 4 — method: protein-binding microarray; molecule type: double-stranded DNA, one strand shown; medium: in vitro; tested at: 0.8 µM; notes: whole 60-bp probe, no competitor; direction: higher = stronger binding; all sequences stand within: … GTCTTGATTCGCTTGACGCTGCTG
Target: Centromere-binding protein 1, full length, N-terminal tag (CBF1, Saccharomyces cerevisiae, UniProt P17106, residues 1-351)
Sequence of UniProt P17106 (whole entry, looked up): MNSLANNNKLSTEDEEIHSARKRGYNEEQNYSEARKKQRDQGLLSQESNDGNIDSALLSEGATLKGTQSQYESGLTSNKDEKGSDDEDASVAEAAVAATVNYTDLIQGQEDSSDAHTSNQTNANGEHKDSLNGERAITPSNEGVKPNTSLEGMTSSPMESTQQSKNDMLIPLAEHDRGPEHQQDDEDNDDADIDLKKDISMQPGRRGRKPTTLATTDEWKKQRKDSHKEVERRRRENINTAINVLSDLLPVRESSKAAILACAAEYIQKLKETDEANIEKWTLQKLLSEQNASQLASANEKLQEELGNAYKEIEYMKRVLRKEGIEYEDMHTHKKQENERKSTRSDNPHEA
| Oligonucleotide | fluorescence intensity [a.u.] |
| --- | --- |
| GAAATTTATTTTCATCACCAAAAAAATCTCACCTAG | 471 |
| CTAAATCCCAGACGTCGCGTGCTAAAAATCCTTTTC | 737 |
| CCTAACTACTATAGTGATCGCAAATAGCTTCGTACA | 522 |
| CTAAGTGATTTTGTAGGCGTGATCAAGTGCTTATTC | 1290 |
| GAAATTTGTACTTGTTTCATCAGATTCTTACATTAG | 514 |
| GAAAACTCGAAGCGTTTCATCAGGTATTTCATATAG | 509 |
| GAAGTTTGACTAATCAGCGTGAACTGACTGTAGTAG | 524 |
| GAATCTTGAAGGCAACATGTGAGATCGGGAAGTTAG | 624 |
| CTAATATTTTTCATCCACGTTTTTGTAGTTTATTTC | 672 |
| TGTACGAAGCTATGCGTCACCAGTATAGTAGTTAGG | 511 |
| CTACATCGGCCGGCCCATGTGAAAAGGAAGTATTTC | 535 |
| CTACTCTATTTTGATCACGCATGCAATTGCACATTC | 1660 |
| CTATTATAGTAAAGTCACGTCAACCTTTGTTACTTC | 674 |
| CTAATTTCAACCATCCTCGTGTCCTTGTTGTTATTC | 610 |
| CTAAAAAATCAAGAAAACGTGCCACGAGTGTGGTTC | 917 |
| CTAAGCACACGCCCTCACGTGAGTGAATTTGCCTTC | 7640 |
| CTAAGAACCTAGAGTCACGATTGAAATATTTAATTC | 593 |
| CTATTCCAACACCATCACGTTATCAATTCTTTCTTC | 1470 |
| CTAATAATGGTAGTAATGGTGATGAAATGTTGTTTC | 503 |
| GAAGATGGACAGCACCGTGTGACTGAGTCTATATAG | 584 |
| CTATGGTCATCACAACCATCAGCGGTGACAATATTC | 528 |
| TGTACGAAGCTATATCACCTATTTATAGTAGTTAGG | 511 |
| GAACCACAACTGGCTGAGATCACGTGAATGGCTTAG | 18400 |
| CTAAATGATATCAAACGCGTGGGTATTTTCCCTTTC | 506 |

Study 5 — target: CREB3L3, bZIP domain (human); method: DHFR protein complementation; medium: yeast; baseline: wild-type JUN-FOS pair; direction: higher = stronger binding
Notes: single substitutions, most at no-binding floor
Starting sequence: JUN, bZIP domain (human); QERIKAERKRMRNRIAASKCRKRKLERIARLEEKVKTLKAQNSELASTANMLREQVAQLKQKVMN; partner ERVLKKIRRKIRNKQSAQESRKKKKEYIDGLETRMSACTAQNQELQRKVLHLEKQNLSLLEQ
| Change | binding fitness |
| --- | --- |
| R53V | -1.44 natural log |
| R53Q | -1.44 natural log |
| E44L | -1.4 natural log |
| L52A | -1.52 natural log |
| S47Y | -1.25 natural log |
| E44K | -1.42 natural log |
| L52T | -1.55 natural log |
| A29E | -1.45 natural log |
| S47C | -1.49 natural log |
| S47A | -1.55 natural log |
| E44Y | -1.57 natural log |
| R53K | -1.53 natural log |
| K36M | -1.19 natural log |
| E33R | -1.35 natural log |
| A29D | -1.5 natural log |
| E44Q | -1.45 natural log |
| L38Y | -1.29 natural log |
| K34E | -1.43 natural log |

Some of these lines once more (study 2):
| Oligonucleotide | log2 enrichment |
| --- | --- |
| UGGCCCUGGUGGCAUGCGGGGAGGAAGAGGUGGCCUCAUGGAUCGUGGUGGUCCCAGUGGAAUGUUCAGAGGUGGCCGUGGUGGAGACAG | 0.569 |
| CCUGUGCUACACAUCGUAUGUACCGAAUCGGGAAAAAAAGGGAAAAAAAGGGAAAAAGGGAAAGUAUUAUGUUACGCCGUUCGGAUCUGC | -0.0925 |
| CAAGUCCUGUGCUACACAUCGUAUGUACCGAAUCGGGGUGGGGUUUGGGGAGGGGAAAGUAUUAUGUUACGCCGUUCGGAUCUGCACUUC | 1.4 |
| CCUCAAGUCCUGUGCUACACAUCGUAUGUACCGAAUCGGCGGGGCGGGCGGGGAAAGUAUUAUGUUACGCCGUUCGGAUCUGCACUUCCA | 0.127 |
| CCUCAAGUCCUGUGCUACACAUCGUAUGUACCGAAUCGGAAAGGUGGUUUGGAAAGUAUUAUGUUACGCCGUUCGGAUCUGCACUUCCAG | -0.31 |
| UGGCCCUGGUGGCAUGCGGGGAGGAAGAGGUGGCCUCAUGGAUCGUGGUGGUCCCGGUGGAAUGUUCAGAGGAGGCCGUGGUGGAGACAG | 1.65 |
| CACAGACAACACGCACCCACACAGACACAGAGGGAAGGGGUUGGGAUGGGGACACGGUGCACAGCAGGGCGGGGUAGGACCCCAGCCCCU | -0.0987 |
| UGUUGAUGCUGUAAUUGCUGAACUUAAAAAGCAGUCUAAACCUGUGACCACCCCUGAAGAAAUUGCACAGGUAAGGACUUAACAUGUUAC | 0.221 |
